# Assay results from different studies.
# Numbered parts are unrelated; each lists some results of a single study. Positions count from the first letter of the parent shown.

# Block 1 — technique: RNA Bind-n-Seq; molecule type: RNA; sample: in vitro; tested at: 200 nM; notes: whole 134-nt RNA, ends assumed; added: 150 mM KCl; reference: input library; reading: higher = stronger binding
# Target: Ras GTPase-activating protein-binding protein 1, full length (G3BP1, Homo sapiens, UniProt Q13283)
# UniProt Q13283, sequence (whole entry, looked up): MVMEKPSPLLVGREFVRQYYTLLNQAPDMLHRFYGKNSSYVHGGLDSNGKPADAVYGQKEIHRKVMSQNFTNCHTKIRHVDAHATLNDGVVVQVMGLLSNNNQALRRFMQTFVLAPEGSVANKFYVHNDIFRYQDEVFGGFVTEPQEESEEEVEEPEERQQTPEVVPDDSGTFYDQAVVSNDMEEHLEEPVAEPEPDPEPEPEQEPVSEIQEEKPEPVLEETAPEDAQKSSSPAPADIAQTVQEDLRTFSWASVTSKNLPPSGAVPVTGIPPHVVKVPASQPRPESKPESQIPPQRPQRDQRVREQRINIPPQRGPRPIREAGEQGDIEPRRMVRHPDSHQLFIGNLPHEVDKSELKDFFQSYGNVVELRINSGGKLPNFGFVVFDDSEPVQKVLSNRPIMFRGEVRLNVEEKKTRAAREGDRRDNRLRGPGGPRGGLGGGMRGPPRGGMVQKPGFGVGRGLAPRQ
Oligonucleotide,log2 enrichment
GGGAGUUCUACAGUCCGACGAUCUAACUUUAGAGGAGGAUCUGAUGGAUAUGGCAGUGGACGUGGAUUUGGGGAUGGCUAUAAUGGGUAUGGAGGAGGAACUGGAGGUGGCAAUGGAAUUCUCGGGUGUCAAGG,0.43
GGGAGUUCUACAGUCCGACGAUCUCAAGUCCUGUGCUACACAUCGUAUGUACCGAAUCGGGGUUGGGGUUGGGUUGGAAAGUAUUAUGUUACGCCGUUCGGAUCUGCACUUCCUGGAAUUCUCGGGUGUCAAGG,0.16
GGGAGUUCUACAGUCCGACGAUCCCUGUGCUACACAUCGUAUGUACCGAAUCGGGGAAAAAAGGAAAAAAGGGGAAAAAAGGGAAAGUAUUAUGUUACGCCGUUCGGAUCUGCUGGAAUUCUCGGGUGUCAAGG,-0.542
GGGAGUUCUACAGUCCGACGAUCCUCAAGUCCUGUGCUACACAUCGUAUGUACCGAAUCGGGUUGGUUGGGUUGGGGAAAGUAUUAUGUUACGCCGUUCGGAUCUGCACUUCCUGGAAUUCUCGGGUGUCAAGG,0.741
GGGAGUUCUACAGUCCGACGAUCUGUGGACGACAAUGAGGAGACCAUCAAAAAGCGGCUGGAGACCUAUUACAAGGCCACAGAACCUGUCAUCGCCUUCUAUGAGAAACGUGGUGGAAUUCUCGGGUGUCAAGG,-0.753
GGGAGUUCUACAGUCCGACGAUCCGGCAGUAGCAGCAGCGCCGGGUCCCGUGCGGAGGUGCUCCUCGCAGAGUUGUUUCUCGAGCAGCGGCAGUUCUCACUACAGCGCCAGGAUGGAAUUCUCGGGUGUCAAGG,-0.97
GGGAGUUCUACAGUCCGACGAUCUUCCCUGUACCGGCAGAGUUCACAAACACAUUUGAAGAGGCUUUUUCUCAGGAUUCUUAACCUUCCCAAAGGAAGUCCCAUGGAUGGGUUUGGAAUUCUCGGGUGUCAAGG,-1.19
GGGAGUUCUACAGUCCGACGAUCCUUUGGUUGACAGGAAGUUCCUUUUCCAGGCAGGUCCCGUUGCCACCUCCUGCUCACUCAGUCCCGGGCUCUGCCGAGUGGUCCUGGGAAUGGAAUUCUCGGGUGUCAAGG,0.497
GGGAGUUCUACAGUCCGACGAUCACCAUGCAGGUGGGCAUCUUUGGGAAGUGGGGCAUGGGGGGGAUAGGGAGGGGGGUAACACUUUGGGAACAGGUGGUCCCAGGUCGUUUCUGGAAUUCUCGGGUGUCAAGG,1.41
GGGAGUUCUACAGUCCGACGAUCACCAUGCAGGUGGGCAUCUUUGGGAAGUGGGGCAAGGGGGGGAUAGGGAGGGGGGUAACACUUUGGGAACAGGUGGUCCGAGGUCGUUUCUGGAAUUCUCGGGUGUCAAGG,1.33

# Block 2 — technique: protein binding microarray; molecule type: double-stranded DNA, one strand shown; sample: in vitro; tested at: not given; reference: not given; reading: higher = stronger binding
# Target: Histone acetyltransferase KAT6A, winged helix 1, GST fusion (KAT6A, Homo sapiens, UniProt Q92794, residues 1-85)
# Notes: 8-mer, flanks averaged, mean of 2 arrays, mostly near background
# Target sequence (chain): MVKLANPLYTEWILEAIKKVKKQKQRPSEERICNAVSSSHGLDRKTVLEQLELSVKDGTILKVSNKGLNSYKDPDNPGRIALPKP
Oligonucleotide,E-score
CCGGTGCG,0.322
CGCCGGTA,0.437
TGACGCAA,0.0479
AGCGAGCT,-0.0371
CGAGGTTA,0.0702
ATCAGCGG,0.288
CCCTATAA,-0.243
CTCGTGAC,-0.188
CAACGCGC,0.343
CGGACATA,0.213
ACCTTCGC,0.181
CTCAATTA,-0.0472
ATGGATTA,-0.19
GTCCGGAC,0.34
CCGTCGAG,0.119
AACCCGAG,0.194
GACACAAA,-0.0812
GCCCAGGA,-0.263
AGTGCAGA,-0.0923
CCTTAAAA,-0.244
GGTTTGAC,0.133
CTGTGTAC,-0.00209
CCCGGTGA,0.144
AGTTAGGC,-0.158
CGCTTAGA,0.117

# Block 3 — technique: protein-binding microarray; molecule type: double-stranded DNA, one strand shown; sample: in vitro; tested at: 2540 nM top; notes: 60-bp whole probe; added: salmon DNA 0.4 mg/ml; reference: random background probes; reading: higher = stronger binding; shared flanks, not repeated: GCCTAGCAC … GTCTTGATTCGCTTGACGCTGCTG
# Target: Interferon regulatory factor 3, full length, phosphomimetic (IRF3, Homo sapiens, UniProt Q14653, residues 1-427, S386D/S396D/S398D/S402D/T404D/S405D)
# UniProt Q14653, sequence (whole entry, unmodified, looked up): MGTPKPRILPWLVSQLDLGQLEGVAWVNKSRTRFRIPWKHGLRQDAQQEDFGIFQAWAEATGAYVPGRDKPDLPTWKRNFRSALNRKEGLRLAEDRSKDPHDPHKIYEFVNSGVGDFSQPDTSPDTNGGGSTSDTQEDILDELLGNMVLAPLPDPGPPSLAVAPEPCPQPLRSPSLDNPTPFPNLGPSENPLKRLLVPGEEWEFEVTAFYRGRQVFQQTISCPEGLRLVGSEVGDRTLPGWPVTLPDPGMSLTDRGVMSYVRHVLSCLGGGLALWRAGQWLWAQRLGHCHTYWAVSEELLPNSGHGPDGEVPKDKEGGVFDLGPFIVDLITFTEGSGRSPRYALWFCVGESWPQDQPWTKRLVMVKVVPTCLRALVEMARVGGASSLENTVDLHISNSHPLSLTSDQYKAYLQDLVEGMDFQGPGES
Oligonucleotide,fitted relative affinity
GAAGTTCTTTTTTTCAAGAAGTGCTAG,1.47 z-score
GACGGTTTCGGTCGCGGGACGTGCTAG,4.83 z-score
GATGGTTTCCTTATCCTGACGTGCTAG,7.95 z-score
TTAGGTTTCCTTTTCCTTTCGTGCTAG,11.8 z-score
GACGGTATCGGACTGGGGAAGTGCTAG,1.55 z-score
GATGGTTTCGGTTCCGGGACGTGCTAG,10.4 z-score
TTCCCAATGGTCTTTCCACTTGTGCTA,0.568 z-score
TTAGAACTGGGTTTCGATTAGTGCTAG,1.99 z-score
CCCCAACTCGCCTTTTTTGTTGTGCTA,1.5 z-score
GACGGATTCGACTATCGGGACGTGCTA,0.579 z-score
TCAAAAATGATTGGTTGACTGTGCTAG,-0.393 z-score
TTAGGTCTCGGTTACGGTTAGTGCTAG,1 z-score
GACGCTTTCCTTTTCCTGACGTGCTAG,7.98 z-score
TTAGGTATCGGGTATCGGTTCGTGCTA,2.68 z-score
GACGGTTTCGACACTGTGGACGTGCTA,3 z-score
TTAGAACTGAGTCTCGCTTAGTGCTAG,-0.538 z-score
GACGAACTGGACACTGGGGACGTGCTA,-0.274 z-score
GACGGTCTCGGACTGGTGACGTGCTAG,-0.0887 z-score
TTAGGTTTCGGTATCGATTAGTGCTAG,8.6 z-score
GACGATTTCGGCTATCGAGACGTGCTA,1.03 z-score
TCAAGTATGTTCACTATTACTGTGCTA,0.0982 z-score
TTAGGTATCGGTATCGGCTAGTGCTAG,4.17 z-score
CACGATATCAGACTGGAGACGTGCTAG,0.00381 z-score
TTAGATTTCAGTATCGATTCGTGCTAG,3.4 z-score

# Block 4 — target: CCNA1, cyclin fold, Cln2 fusion (human); technique: yeast growth competition, sequencing; sample: yeast; notes: weak parent motif; reference: not given; reading: higher = stronger binding
# Starting sequence: GMNC docking peptide (human); KNAKRNLSSEFAN
Change,normalised enrichment score
KSAKRNLSSEFAN [N2S],0.794
KNAKRNLSAEFAN [S9A],0.604
KNAYRNLSSEFAN [K4Y],0.318
KNQKRNLSSEFAN [A3Q],-0.111
KMAKRNLSSEFAN [N2M],0.212
KNAKSNLSSEFAN [R5S],0.267
KLAKRNLSSEFAN [N2L],0.511
KNAKRNLSSCFAN [E10C],0.106
KNAKRNLTSEFAN [S8T],0.132
KNAKRDLSSEFAN [N6D],-0.189
KNARRNLSSEFAN [K4R],1.06
KNAKRNLSSEFFN [A12F],0.276
KNAKRNLESEFAN [S8E],0.327
KEAKRNLSSEFAN [N2E],0.457
KNNKRNLSSEFAN [A3N],0.0222
KNAKRILSSEFAN [N6I],0.12
KTAKRNLSSEFAN [N2T],0.907
KNAKRNLSVEFAN [S9V],0.626
KNAKRNLSSEFCN [A12C],0.517
KNAKRNLSHEFAN [S9H],0.477
KRAKRNLSSEFAN [N2R],1.21
KNALRNLSSEFAN [K4L],0.61
KNAKRNLSGEFAN [S9G],0.484
KNAKRNNSSEFAN [L7N],0.229
KNAKRNLSEEFAN [S9E],0.2

# Excerpt of the above (block 2):
Oligonucleotide,E-score
AACCCGAG,0.194
AGTGCAGA,-0.0923
CTCGTGAC,-0.188
AGCGAGCT,-0.0371
ATGGATTA,-0.19
AGTTAGGC,-0.158
ACCTTCGC,0.181
CGCCGGTA,0.437
GACACAAA,-0.0812
CCCGGTGA,0.144
ATCAGCGG,0.288
CGAGGTTA,0.0702
CCGTCGAG,0.119
CCGGTGCG,0.322
